Measured values gathered from unrelated publications.
Parts stem from different laboratories: compare values within a part only. Positions count from the first letter of the parent shown.

Study 1
Target: Sal-like protein 4, full length isoform B (SALL4, Homo sapiens, UniProt Q9UJQ4-2, residues 1-616)
Technique: universal PBM
Form: double-stranded DNA, one strand shown
Sample: in vitro
Tested at: not given
Notes: 8-mer, flanks averaged, mean of replicates
Direction: higher = stronger binding
Residues (chain): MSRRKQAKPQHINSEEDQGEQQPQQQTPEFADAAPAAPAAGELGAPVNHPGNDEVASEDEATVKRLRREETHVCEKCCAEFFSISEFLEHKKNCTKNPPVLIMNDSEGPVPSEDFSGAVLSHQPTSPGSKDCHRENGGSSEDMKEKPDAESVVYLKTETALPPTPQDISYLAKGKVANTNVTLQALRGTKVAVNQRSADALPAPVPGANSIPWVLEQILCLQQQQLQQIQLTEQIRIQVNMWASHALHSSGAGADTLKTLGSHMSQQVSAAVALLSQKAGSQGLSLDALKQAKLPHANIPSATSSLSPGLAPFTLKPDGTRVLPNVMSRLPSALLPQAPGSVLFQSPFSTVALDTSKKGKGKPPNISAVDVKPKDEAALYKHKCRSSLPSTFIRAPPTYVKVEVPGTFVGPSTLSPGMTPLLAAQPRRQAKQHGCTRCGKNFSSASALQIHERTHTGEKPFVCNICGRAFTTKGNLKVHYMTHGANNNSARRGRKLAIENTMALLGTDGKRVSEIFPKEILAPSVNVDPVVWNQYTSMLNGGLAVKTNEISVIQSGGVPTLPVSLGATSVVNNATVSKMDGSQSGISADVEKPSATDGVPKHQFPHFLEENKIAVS
Strand | E-score
CAGTTTGA | 0.0128
AGCTACGC | -0.175
ATCTCTAG | 0.0291
TCATCACA | -0.0356
AACTACCA | 0.104
ACATTACG | 0.185
GTCAGTGA | -0.0396
CCGTTGCC | -0.271
ACAAAGTC | -0.0943
CTCACCCA | -0.103
GACCTGGA | -0.105
CTTACTAC | 0.151
AAGATGGG | -0.0795
AACCGAGG | -0.176
ATGGTAAG | 0.0562
ACTATCGA | 0.0291

Study 2
Target: ABI1, truncated, D143A, DHFR fusion (Arabidopsis thaliana)
Technique: DHFR PCA, deep sequencing
Sample: yeast
Notes: methotrexate growth selection, single substitutions
Together with: (+)-ABA 0.0091 µM
Relative to: wild-type fitted maximum
Direction: higher = stronger binding
Starting sequence: PYL1, truncated, DHFR fusion (Arabidopsis thaliana); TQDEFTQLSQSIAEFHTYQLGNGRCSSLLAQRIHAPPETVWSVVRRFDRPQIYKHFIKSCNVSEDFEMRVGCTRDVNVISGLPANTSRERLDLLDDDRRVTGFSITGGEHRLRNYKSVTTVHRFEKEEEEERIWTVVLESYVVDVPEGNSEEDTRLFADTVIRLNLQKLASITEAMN
Substitution | relative binding score
Q19S | 24.6%
V100H | -10.9%
H16S | 1.73%
Q167W | -3.24%
E128T | 27.1%
W41R | 4.37%
R74Q | -10.8%
R155A | 0.256%
S140N | -0.454%
E129Y | 9.31%
I105C | -5.33%
Q7T | 23.1%
D48S | 0.388%
R155F | 7.42%
N149W | 9.92%
S63L | -1.64%
Q7W | 23.9%
K54N | -1.79%
V118T | 31.6%
E152Q | 10.9%
I33Y | 3.03%
Y115H | 8.16%
I172V | 53.8%
V44Y | -8.5%
I52V | 43.3%

Study 3
Target: CCNE2, cyclin fold, Cln2 fusion (human)
Technique: yeast growth competition, sequencing
Sample: yeast
Notes: strong parent motif
Relative to: not given
Direction: higher = stronger binding
Starting sequence: E2F1 docking peptide (human); PPVKRRLDFETDH
Substitution | normalised enrichment score
PPVKRRLDFPTDH [E10P] | 5.02
PPVKRSLDFETDH [R6S] | 1.71
PPVKRRLDFEQDH [T11Q] | 5.48
PNVKRRLDFETDH [P2N] | 5.85
PPVKRRLPFETDH [D8P] | 1.44
PPVKRRLDFETLH [D12L] | 6.52
PPVKYRLDFETDH [R5Y] | -0.000545
PPVKRFLDFETDH [R6F] | 1.49
PPVKRRLDFRTDH [E10R] | 6.1
PPVKRRLDFETSH [D12S] | 6.29
PAVKRRLDFETDH [P2A] | 5.21
PPVKCRLDFETDH [R5C] | 0.438
PPVKRLLDFETDH [R6L] | 1.74
PPFKRRLDFETDH [V3F] | 2.68
PPVKRRLDHETDH [F9H] | 0.0205
PPVMRRLDFETDH [K4M] | 3.71
PPVKFRLDFETDH [R5F] | -0.0356
PPPKRRLDFETDH [V3P] | 1.81
PPVKRRLDFETTH [D12T] | 6.07
PYVKRRLDFETDH [P2Y] | 4.58
PPVKRRLDFEFDH [T11F] | 6.08

Study 4
Target: PABPC1L2, full length, GST fusion (mouse, UniProt A0ABA7IW68)
Technique: RNAcompete
Form: RNA
Sample: in vitro
Tested at: 20 nM
Notes: 7-mer, probes averaged, single round
Relative to: mean of 7-mers
Direction: higher = stronger binding
Target sequence (chain): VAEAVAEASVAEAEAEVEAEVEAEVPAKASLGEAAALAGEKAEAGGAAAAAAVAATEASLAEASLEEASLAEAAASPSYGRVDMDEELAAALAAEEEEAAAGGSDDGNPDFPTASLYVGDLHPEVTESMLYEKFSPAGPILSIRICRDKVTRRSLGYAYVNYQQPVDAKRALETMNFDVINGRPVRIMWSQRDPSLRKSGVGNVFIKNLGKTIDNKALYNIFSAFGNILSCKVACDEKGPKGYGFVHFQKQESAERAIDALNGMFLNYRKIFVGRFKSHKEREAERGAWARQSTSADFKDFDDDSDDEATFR
Strand | 7-mer Z-score
AUCCAAU | -0.0174
AAUCAUC | -0.0192
ACUUCGA | -0.0844
GCAAUGG | 0.109
ACGGGUA | 0.332
CCGAGCA | -0.104
GAGGCAU | -0.0863
CUGGACC | -0.0953
CCGUUCA | -0.378
GACUCUC | -0.32
UUAGGGC | 0.271
UCCACCC | -0.269
GUAGGGA | 0.207
UAAUCUU | -0.266
GCGGUGG | 0.0895
GUGCCAC | -0.217
UCCUAAC | -0.351
UUAACUA | -0.15
UUAUUGA | -0.0573
ACAGCGA | 0.0895
CCUCAAU | -0.224
GUGCAUG | 0.144
GGGAGUU | -0.079
GCGGGAC | 0.247
GUCACUC | -0.278

Study 5
Target: FOSB, bZIP domain (human)
Technique: DHFR protein complementation
Sample: yeast
Notes: single substitutions, most at no-binding floor
Relative to: wild-type JUN-FOS pair
Direction: higher = stronger binding
Starting sequence: JUN, bZIP domain (human); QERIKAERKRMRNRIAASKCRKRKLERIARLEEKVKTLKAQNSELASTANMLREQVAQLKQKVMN; partner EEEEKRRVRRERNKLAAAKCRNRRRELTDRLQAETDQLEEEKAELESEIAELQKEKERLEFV
Substitution | binding fitness
V35S | -0.474 natural log
T48I | -0.0527 natural log
E33R | -0.181 natural log
K36R | -0.00452 natural log
E44Q | -0.0614 natural log
Q55R | -0.142 natural log
L45M | -0.394 natural log
Q41W | -1.14 natural log
V35G | -0.993 natural log
T37H | 0.0534 natural log
E32I | -0.438 natural log
I28L | -0.156 natural log
A46E | -0.0581 natural log
K34V | -0.352 natural log
L59R | -1.07 natural log
A29L | -0.311 natural log
K34D | -0.399 natural log
K36L | -0.122 natural log
A49K | -0.218 natural log
L45K | -0.822 natural log
E32K | -0.0582 natural log
A49D | -1.2 natural log
S43I | -0.0798 natural log
A57W | -0.269 natural log
L31I | -0.422 natural log

Study 6
Target: Runt-related transcription factor 3, Runt domain (RUNX3, Homo sapiens, UniProt Q13761, residues 53-186)
UniProt Q13761, sequence (53-186, looked up): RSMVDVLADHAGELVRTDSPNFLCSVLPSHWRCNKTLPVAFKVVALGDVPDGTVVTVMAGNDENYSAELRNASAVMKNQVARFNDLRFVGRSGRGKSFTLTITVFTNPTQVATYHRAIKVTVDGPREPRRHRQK
Technique: protein-binding microarray
Form: hairpin DNA
Sample: in vitro
Tested at: not given
Notes: whole hairpin DNA, median over replicate spots
Relative to: not given
Direction: higher = stronger binding
Strand | median fluorescence [a.u.]
GAGGCCCAACCGTAACAGCCTCCTGGCTGTTACGGTTGGGCCTCACACTC | 4260
GAGGCCTGTTTTGGTTGGCCTCCTGGCCAACCAAAACAGGCCTCACACTC | 4280
GAGGCCTGTCGCGGTTGGCCTCCTGGCCAACCGCGACAGGCCTCACACTC (5mC at 37) | 6150
CTCAGTTCTGTGGTCTGGACTCCTGTCCAGACCACAGAACTGAGACACTC | 4580
CTCAGTTCTGTGGCCTGGACTCCTGTCCAGGCCACAGAACTGAGACACTC | 3980
GAGGCCTGTTGTGGTTGGCCTCCTGGCCAACCACAACAGGCCTCACACTC | 5340
CTCAGTTCTGTGGGCTGGACTCCTGTCCAGCCCACAGAACTGAGACACTC (5mC at 15) | 4240
GGGGCCTGTCGCGGTTGGCCTCCTGGCCAACCGCGACAGGCCCCACACTC (5mC at 43) | 6310
GAGGCCTGTCGCGGTTGGCCTCCTGGCCAACCGCGACAGGCCTCACACTC (5mC at 6) | 6550
GAGGCCCAACCGCCACAGCCTCCTGGCTGTGGCGGTTGGGCCTCACACTC | 6300
GAGGCCCGACCGCAACAGCCTCCTGGCTGTTGCGGTCGGGCCTCACACTC (5mC at 37) | 7180
GAGGCCTATCGCGGTTGGCCTCCTGGCCAACCGCGATAGGCCTCACACTC | 5330
GAGGCCCACCCGCAACAGCCTCCTGGCTGTTGCGGGTGGGCCTCACACTC (5mC at 9) | 5490

For quick reference, copied from above (study 6):
Strand | median fluorescence [a.u.]
GAGGCCCAACCGTAACAGCCTCCTGGCTGTTACGGTTGGGCCTCACACTC | 4260
GAGGCCTGTTTTGGTTGGCCTCCTGGCCAACCAAAACAGGCCTCACACTC | 4280
GAGGCCTGTCGCGGTTGGCCTCCTGGCCAACCGCGACAGGCCTCACACTC (5mC at 37) | 6150
CTCAGTTCTGTGGTCTGGACTCCTGTCCAGACCACAGAACTGAGACACTC | 4580
CTCAGTTCTGTGGCCTGGACTCCTGTCCAGGCCACAGAACTGAGACACTC | 3980
GAGGCCTGTTGTGGTTGGCCTCCTGGCCAACCACAACAGGCCTCACACTC | 5340
CTCAGTTCTGTGGGCTGGACTCCTGTCCAGCCCACAGAACTGAGACACTC (5mC at 15) | 4240
GGGGCCTGTCGCGGTTGGCCTCCTGGCCAACCGCGACAGGCCCCACACTC (5mC at 43) | 6310
GAGGCCTGTCGCGGTTGGCCTCCTGGCCAACCGCGACAGGCCTCACACTC (5mC at 6) | 6550
GAGGCCCAACCGCCACAGCCTCCTGGCTGTGGCGGTTGGGCCTCACACTC | 6300
